Results from different studies.
Protocols differ between the studies behind these lines. Numbers after ± are the reported error.

c1cc2ccc3cccc4ccc(c1)c2c34
concentration in feces (HPLC with fluorescence detection; Wistar rat, male, feces, wet weight; oral, 4 mg/kg, 24 h collection): 96.1 ± 25.8 ppb

CCCCCOc1ccc(-c2ccc(-c3ccc(C(=O)N[C@H]4C[C@@H](O)[C@@H](O)NC(=O)[C@@H]5[C@@H](O)[C@@H](C)CN5C(=O)[C@H]([C@@H](C)O)NC(=O)[C@H]([C@H](O)[C@@H](O)c5ccc(O)cc5)NC(=O)[C@@H]5C[C@@H](O)CN5C(=O)[C@H]([C@@H](C)O)NC4=O)cc3)cc2)cc1
Cmin,ss (human patients aged 5 to sample A years, plasma; iv, loading 3.0 mg/kg then 1.5 mg/kg daily, steady state, median): 2340 ng/mL

Cc1c(P(=S)(c2ccccc2)c2ccccc2)n2ccccc2[n+]1C/C=C/c1ccccc1
concentration (mouse, brain; intraperitoneal, 10 mg/kg, 4 h): 24 ng/g

O=C(CC(=O)c1ccccc1)c1ccccc1
absorption rate constant (male Sprague-Dawley rats, plasma; po, 10 mg/kg, regular emulsion): 0.026 h⁻¹

CN[C@@](C)(C[18F])C(=O)O
tissue uptake (SCID mouse MDA-MB-468 xenograft, spleen; 30 min, post injection): 10 ± 1.3 %ID/g

O[C@H]1CCCN[C@@H]1CCCn1cnc2c(Cl)c(Cl)ccc21
Vd/F (human, plasma; oral, 300 mg, single dose, healthy volunteers): 2360 L

Cn1nccc1Nc1nc(NCC(F)(F)F)c2nc[nH]c2n1
Tmax (NMRI mouse, female, uninfected, blood; intraperitoneal, 10 mg/kg): 15 to 30 min

COc1ccc(C[C@@H]2NC(=O)[C@H]([C@@H](C)O)NC(=O)[C@@H]3[C@@H]4CCN3C(=O)[C@@H]3Cc5cn(c6ccc(F)cc56)CCCCCCN(Cc5ccc(cc5)CCNC(=O)[C@]5(C)CCCN5C2=O)C(=O)CCC(=O)N[C@@H](C)C(=O)N[C@H](CNC(=O)CCCCC[N+](C)(C)C)C(=O)N[C@@H](Cc2cccc(c2)CNC(=O)CO4)C(=O)N3)cc1
Cmax (healthy humans, plasma; oral, 10 mg once daily, day 14, dosed 30 min post-meal, with: sodium caprate 360 mg): 5.28 nM

CCOCN(C(=O)CCl)c1c(C)cccc1CC
remaining amount (LC-MS/MS; herbicide solution; 2 h, 23 °C, with: 254 nm UV exposure): 11.8 ± 0.01%

NC[C@H]1O[C@@H](O[C@@H]([C@H](NCCCC(=O)NCc2ccc(N3CCC(Oc4ccc(OC(F)(F)F)cc4)CC3)cc2)C(N)=O)[C@H]2O[C@@H](n3ccc(=O)[nH]c3=O)C(O)C2O)[C@H](O)[C@@H]1O (stereo partly drawn)
efflux ratio (Caco-2): 5.5

[123I]c1cncc(OC[C@@H]2CCN2)c1
tissue/plasma ratio (SPECT; human, brain cortex; intravenous bolus, 2.1 mCi; reference: plasma): 13.9

CNC(=O)c1ccc(-c2cnn3ccc(C(=O)N(C)c4ccc(Cl)c(C(=O)OC)c4)cc23)cc1
AUC(0-8 h) (beagle dogs, both sexes, plasma; oral, 250 mg/kg/day, day 14, 2-week toxicology study): 248 ng·h/mL

For quick reference, copied from above:
CCCCCOc1ccc(-c2ccc(-c3ccc(C(=O)N[C@H]4C[C@@H](O)[C@@H](O)NC(=O)[C@@H]5[C@@H](O)[C@@H](C)CN5C(=O)[C@H]([C@@H](C)O)NC(=O)[C@H]([C@H](O)[C@@H](O)c5ccc(O)cc5)NC(=O)[C@@H]5C[C@@H](O)CN5C(=O)[C@H]([C@@H](C)O)NC4=O)cc3)cc2)cc1
Cmin,ss (human patients aged 5 to sample A years, plasma; iv, loading 3.0 mg/kg then 1.5 mg/kg daily, steady state, median): 2340 ng/mL

Cc1c(P(=S)(c2ccccc2)c2ccccc2)n2ccccc2[n+]1C/C=C/c1ccccc1
concentration (mouse, brain; intraperitoneal, 10 mg/kg, 4 h): 24 ng/g
